Results pooled from the literature.
Each line is one published result; not all experiments were run side by side. ± gives the spread as reported. Converted amounts (≈) assume the structure as drawn. Where no end group is shown, it is not given here.

Molecule = CCCCCCCOc1c(OC)cc(NC(C)CCCN)c2nc(C(C)(C)C)ccc12 (stereo not drawn); organism = Staphylococcus aureus; assay = microbial killing; system = ATCC33591 MRSA; setting = drug-resistant strain; endpoint = MBC; result = 10 µg/mL (≈ 23.3 µM)
Molecule = COC(=O)N[C@H](C(=O)N1CCC[C@H]1c1ncc(-c2ccc(-c3ccc(-c4cnc([C@@H]5CCCN5C(=O)[C@@H](NC(=O)OC)C(C)C)[nH]4)cc3)cc2)[nH]1)C(C)C; organism = hepatitis C virus; assay = viral replication, transient replicon; system = genotype 1a NS5A Q30R; endpoint = EC50; result = 0.0073 ± 0.0011 µM
Molecule = CCCCCCCCCCCCCCCC(=O)N/N=C/c1ccccc1Cl; organism = Candida albicans, Aspergillus niger; assay = fungal growth; endpoint = MIC; result = 20.4 µM
Molecule = C=CCc1ccc(OC(C)=O)c(OC)c1; organism = Spodoptera frugiperda; setting = topical, larvae; endpoint = LD50; result = 2020 mg/kg
Molecule = CCCCCCOc1c(OC)cc(NC(C)CCCN)c2nc(C(C)(C)C)ccc12 (stereo not drawn); organism = Staphylococcus aureus; assay = microbial growth; system = ATCC33591 MRSA; setting = drug-resistant strain; endpoint = IC50; result = 2.77 µg/mL (≈ 6.66 µM)
Molecule = CCC1CCCCN1CCCNC(=O)c1ccc2c(=O)n(CCOC)c(=O)[nH]c2c1 (stereo not drawn); organism = Hepatitis C virus; assay = HCV infection, Gaussia luciferase reporter; system = Huh7.5.1 reporter cells; scale = baseline: 10 µM cyclosporin A, DMSO, negative means inhibition; endpoint = maximal response; result = -1.23%
Molecule = CC(=O)N(O)CCCCCNC(=O)CCC(=O)N(O)CCCCCNC(=O)CCC(=O)N(O)CCCCCN; organism = Cryptococcus neoformans; assay = microbial growth; endpoint = MIC80; result = > 200 µM
Molecule = CCOC(=O)[C@@]1(CS)N[C@@H](C(=O)O)C(C)(C)S1; organism = Proteus mirabilis; assay = broth microdilution; system = clinical isolate; setting = compound at 100 mg/L, with: meropenem; endpoint = MIC; result = 1 µg/mL
Molecule = CP(=O)(O)CCC(N)C(=O)O (stereo not drawn); organism = Amaranthus palmeri; setting = 60 g/ha, 13 days, AMAPA, post-emergence spray; scale = baseline: untreated (0%), complete kill (100%); endpoint = herbicidal activity; result = 100%
Molecule = CCCCCCOc1c(OC)cc(NC(C)CCCNC(=O)C(N)Cc2cnc[nH]2)c2nc(C(C)(C)C)ccc12 (stereo not drawn); organism = Staphylococcus aureus; assay = microbial growth; system = ATCC33591 MRSA; setting = drug-resistant strain; endpoint = IC50; result = 4.42 µg/mL (≈ 8 µM)
Molecule = CCOP(=S)(OCC)Oc1cc(C)nc(C(C)C)n1; organism = Hydra vulgaris; assay = morphology; setting = 92 h; endpoint = EC10; result = 32 µM
Molecule = DHVFLRF-NH2 (C-amide); organism = Drosophila melanogaster; assay = heart rate; system = wandering third instar larval heart; setting = 40 nL injected, 1 µM, 10 min; scale = baseline: DMS; endpoint = inhibition; result = 150%
Molecule = GFVRI-OH; organism = Schistosoma mansoni; assay = EthoVision motion tracking; system = peptide, adult worm pairs; setting = 10 µM, 5 min, 37 °C; scale = baseline: pretreatment mobility; endpoint = change in mobility; result = -12.8 ± 3.88%
Molecule = COc1cc(C=NNC(=O)CN2c3c(n[nH]c3-c3cccc(Cl)c3)-c3ccccc3S2(=O)=O)cc(OC)c1OC; organism = HIV-1; assay = viral replication; system = PBMC; endpoint = EC90; result = 13.5 µM
Molecule = TDVDHVFLRA-NH2 (C-amide); organism = Drosophila melanogaster; assay = heart rate; system = adult heart; setting = 40 nL injected, 1 µM, 10 min; scale = baseline: DMS; endpoint = inhibition; result = 41%

A few entries again:
Molecule = COc1cc(C=NNC(=O)CN2c3c(n[nH]c3-c3cccc(Cl)c3)-c3ccccc3S2(=O)=O)cc(OC)c1OC; organism = HIV-1; assay = viral replication; system = PBMC; endpoint = EC90; result = 13.5 µM
Molecule = TDVDHVFLRA-NH2 (C-amide); organism = Drosophila melanogaster; assay = heart rate; system = adult heart; setting = 40 nL injected, 1 µM, 10 min; scale = baseline: DMS; endpoint = inhibition; result = 41%
